Measured values pooled from the literature.
Numbered parts are unrelated; each lists some results of a single study.

Block 1
Target: Histone acetyltransferase KAT6A, both winged helices, GST fusion (KAT6A, Homo sapiens, UniProt Q92794, residues 1-181)
Technique: protein binding microarray
Form: double-stranded DNA, one strand shown
Matrix: in vitro
Concentration: not given
Notes: 8-mer, flanks averaged, mean of 2 arrays, mostly near background
Reference: not given
Direction: higher = stronger binding
Construct (chain): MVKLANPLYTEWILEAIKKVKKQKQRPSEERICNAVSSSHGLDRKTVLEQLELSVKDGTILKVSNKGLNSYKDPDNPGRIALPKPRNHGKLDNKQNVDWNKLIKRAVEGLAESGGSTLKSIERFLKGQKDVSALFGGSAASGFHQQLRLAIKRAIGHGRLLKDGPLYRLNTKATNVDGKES
`GGTGCTGA` has an E-score of -0.173.
`AACGTGGG` has an E-score of -0.141.
The E-score of `CCACTTCG` is reported as -0.00593.
For `AAGAGACG`, the E-score was 0.0803.
For `ACTGCAGT`, the E-score was -0.0969.
`AGCAGCCC` gave an E-score of -0.0682.
With `ATGAGATC` the E-score was -0.169.
`CAGTTTAG` has an E-score of -0.202.
With `GGGAACTA` the E-score was 0.0424.
The E-score of `CCCAATCG` is reported as -0.0344.
With `CTCACGAG` the E-score was -0.106.
`CTTCACCA` gave an E-score of -0.0878.
For `TAATTGGA`, the E-score was -0.0442.
With `AGACCGTA` the E-score was 0.0899.
The E-score of `AGAACATG` is reported as -0.064.
With `AAGGTTTA` the E-score was -0.156.
For `AGGAATTC`, the E-score was -0.0707.
`ATTAGTCA` gave an E-score of -0.0461.
With `CGGGCCAC` the E-score was 0.189.
The E-score of `CCGTCAGC` is reported as 0.213.

Block 2
Target: PABPC1L2, full length, GST fusion (mouse, UniProt A0ABA7IW68)
Technique: RNAcompete
Form: RNA
Matrix: in vitro
Concentration: 20 nM
Notes: 7-mer, probes averaged, single round
Reference: mean of 7-mers
Direction: higher = stronger binding
Target sequence (chain): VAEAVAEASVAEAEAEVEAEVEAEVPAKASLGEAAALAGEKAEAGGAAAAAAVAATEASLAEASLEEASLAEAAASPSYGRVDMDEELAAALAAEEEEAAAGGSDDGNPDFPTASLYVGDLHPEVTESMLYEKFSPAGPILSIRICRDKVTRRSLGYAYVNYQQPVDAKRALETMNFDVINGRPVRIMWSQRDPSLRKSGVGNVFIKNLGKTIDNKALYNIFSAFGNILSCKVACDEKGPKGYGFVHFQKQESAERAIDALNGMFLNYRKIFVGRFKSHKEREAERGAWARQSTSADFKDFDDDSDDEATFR
`CACUCGG` has a 7-mer Z-score of -0.0573.
For `UGUUCGC`, the 7-mer Z-score was -0.483.
`UCCUUGC` has a 7-mer Z-score of -0.316.
With `UAGCGUG` the 7-mer Z-score was -0.2.
`UCCUACG` has a 7-mer Z-score of -0.213.
`GGUAAGC` gave a 7-mer Z-score of -0.0192.
With `AUGCGUU` the 7-mer Z-score was -0.329.
`UACUCUU` has a 7-mer Z-score of -0.478.
`ACGGAUU` gave a 7-mer Z-score of 0.017.
For `ACGGGGU`, the 7-mer Z-score was -0.115.
With `GAAGAGA` the 7-mer Z-score was 0.206.
With `AACCGAC` the 7-mer Z-score was 0.0243.
`GCCGUUA` gave a 7-mer Z-score of -0.248.
With `UUUGUAU` the 7-mer Z-score was -0.217.
With `UAAGUGG` the 7-mer Z-score was 0.263.
For `AAAGAAC`, the 7-mer Z-score was 2.06.

Block 3
Target: RNA binding protein fox-1 homolog 2, RRM domain, GST-SBP tag (RBFOX2, Homo sapiens, UniProt O43251-10, residues 100-194)
Technique: RNA Bind-n-Seq
Form: RNA
Matrix: in vitro
Concentration: 365 nM
Notes: natural RNA segment, single round, ends assumed
Reference: no-protein control
Direction: higher = stronger binding
Target sequence (chain): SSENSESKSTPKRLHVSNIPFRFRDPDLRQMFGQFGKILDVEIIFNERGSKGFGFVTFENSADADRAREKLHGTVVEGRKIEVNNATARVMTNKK
`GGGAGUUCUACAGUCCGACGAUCAAAAAAAAUAAAAUUUGAGUGGAAAUAAUGUUAUUAAACCAUUCUUCUAAUGCUUCACUUUUGAUGAUGCAGUAUGUUCCUUUAAAUCUUGGCAGAACUUUCUAAAGCUAUGGAAUUCUCGGGUGCCAA`: “RBNS enrichment (R)” 0.725.
For `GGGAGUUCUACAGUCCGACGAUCGUAAAUGCUAAAAAUGUUAAAGAACUCGAAGUAUUUCUCUAAAAGGCUGUCAAGAGAAUCUAGGUCUGCUAUGACUUAUUCCAAGUCCUCAGAGUUAAGUCAAGGAGUGUUGGAAUUCUCGGGUGCCAA`, “RBNS enrichment (R)” read 0.442.
For `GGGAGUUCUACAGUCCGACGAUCUGUGUGACCUACAAGAUUCCUGGUUGAUACAGUUCAGGUGAGAAACUGUUUGAUUAUAGAAAAGACCCCAGACUCAGAGGGAAGGCUCUCUGGUCUACCUGAGAUCUAUAUGGAAUUCUCGGGUGCCAA`, “RBNS enrichment (R)” read 0.402.
`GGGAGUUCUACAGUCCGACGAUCCUUCAAGAAAAACUAAAAUGAUUUAGUUGGAGCAAAGCUUUAAGUGUGUUGGUGUGCUUCUGUGUGGCUGUCCCUGUUGCUAGCAGAUCACAGUGAUUUGGUCCCAUUGGUGGAAUUCUCGGGUGCCAA`: “RBNS enrichment (R)” 0.536.
For `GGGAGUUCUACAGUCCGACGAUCGAAUUGAACUCCUUGAGAGAUAGUUGGGUUUACUAAAUUAUUCUCUCUAAAAUGUCUCUGAGUGAAAAAGAGUUGCCUGGUACAAACAAAUCUGUGUUGGGGUUCCAGUGUGGAAUUCUCGGGUGCCAA`, “RBNS enrichment (R)” read 0.544.
`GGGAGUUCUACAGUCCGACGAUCUCUCCAUAGAGAAUGGUGCUUUGUCCAAGAAAACGUAUGAGUUUCUGAUUCUCCGGGAGCCGUUCAAUGGUGAGGUUGAUGGGAAGACUUCCUUCCCAAAGAAAAUAGAUUGGAAUUCUCGGGUGCCAA`: “RBNS enrichment (R)” 0.323.
Under “RBNS enrichment (R)”, `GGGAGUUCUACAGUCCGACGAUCAGCCCUCUGUCACUUGACACCCUUCUAGCCUUGUUGGAAGGGUUUUCAGGGAGAUGGGGGCACUAUGGUUGCCCAAGACCAUAAACCCUCUUGUAGUCAGGCAGUAUAGUUGGAAUUCUCGGGUGCCAA` is recorded as 0.256.
Under “RBNS enrichment (R)”, `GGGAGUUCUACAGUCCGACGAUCAAAUCACUCUCAGCCCUGUAUUUGGUACCGGUGUGUCCCAGGUCAAUGUACAGAACUGCAGCCAAGGAGCUAAGAUGUAACAGAGAGAGAGAAGAGCUGGUGAACCAUAUUGGAAUUCUCGGGUGCCAA` is recorded as 0.554.
`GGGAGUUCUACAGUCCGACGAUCAGAAAGAGAAAGAGAGCGGCUGCUGUAGGGACAGCUCUCUGCCUCUCCUCUCCUGGCUCUACCAGUAAGACAAGAUUUAUUUAAUUUUAUUAUUUAAUCUGCACUGAUUUUGGAAUUCUCGGGUGCCAA` — result for “RBNS enrichment (R)”: 0.516.

Block 4
Target: Centromere-binding protein 1, full length, N-terminal tag (CBF1, Saccharomyces cerevisiae, UniProt P17106, residues 1-351)
UniProt P17106, sequence (whole entry, looked up): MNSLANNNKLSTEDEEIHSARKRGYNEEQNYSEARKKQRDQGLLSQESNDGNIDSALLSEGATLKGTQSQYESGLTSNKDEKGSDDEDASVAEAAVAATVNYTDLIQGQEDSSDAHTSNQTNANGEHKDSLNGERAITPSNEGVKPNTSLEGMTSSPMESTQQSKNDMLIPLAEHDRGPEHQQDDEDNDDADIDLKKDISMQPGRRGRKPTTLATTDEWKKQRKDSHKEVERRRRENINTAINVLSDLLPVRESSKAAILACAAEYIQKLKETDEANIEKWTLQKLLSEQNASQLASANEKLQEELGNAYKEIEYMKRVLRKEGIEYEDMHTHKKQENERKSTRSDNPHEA
Technique: protein-binding microarray
Form: double-stranded DNA, one strand shown
Matrix: in vitro
Concentration: 0.8 µM
Notes: whole 60-bp probe, no competitor
Direction: higher = stronger binding
`CTATGACAAATATTTGATGTTACCGAAATAGCATTCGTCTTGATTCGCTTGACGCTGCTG` has a fluorescence intensity of 501 a.u.
The fluorescence intensity of `CTAATGAAAATTTACCACGTCAACTATTTATGTTTCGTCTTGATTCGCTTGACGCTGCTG` is reported as 469 a.u.
For `CTAAGTTAACTGTAACATGTGCTGCTATATAGTTTCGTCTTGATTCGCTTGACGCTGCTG`, the fluorescence intensity was 884 a.u.
With `CTAGTACAAATAAGTCACATGATGATATTTGATTTCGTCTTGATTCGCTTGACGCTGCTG` the fluorescence intensity was 6650 a.u.
For `CTAATGGCTTTGCATCTGATGCTGGCTCTACCGTTCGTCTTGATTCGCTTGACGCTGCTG`, the fluorescence intensity was 497 a.u.
With `CTAATCTTTATTGATAACGTGGACGTGTTATTATTCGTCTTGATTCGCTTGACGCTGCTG` the fluorescence intensity was 919 a.u.
With `CTAAGCGGGTCACGTGGTCGCGCAAATGATGATTTCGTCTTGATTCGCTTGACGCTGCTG` the fluorescence intensity was 29100 a.u.
`GAAACTATGCGTTCCTTCGTGATCAGGATCCCTTAGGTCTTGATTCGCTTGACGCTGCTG` gave a fluorescence intensity of 612 a.u.
With `GAATTCACAATATTCCGCGTGAATCGTAGAATTTAGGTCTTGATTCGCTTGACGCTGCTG` the fluorescence intensity was 525 a.u.
For `GAATTTGTTTTTAATCATGATGGACATGCAAGTTAGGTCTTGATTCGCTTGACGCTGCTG`, the fluorescence intensity was 593 a.u.
For `CTACGTGTCACTGTGCACGAGCAACGAAAAACTTTCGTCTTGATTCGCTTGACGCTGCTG`, the fluorescence intensity was 950 a.u.
`GAACAACTCGTACGTGATGGGGATTCTAAACCTTAGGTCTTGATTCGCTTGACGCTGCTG` gave a fluorescence intensity of 549 a.u.
`GAAAAATAGTGCTGGTTCGTGACGTGTAAATTCTAGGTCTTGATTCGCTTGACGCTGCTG` has a fluorescence intensity of 843 a.u.
With `TGTACGAAGCTATGTCACGAAGATATAGTAGTTAGGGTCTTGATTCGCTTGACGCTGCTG` the fluorescence intensity was 563 a.u.
`GAAGTTAGAGGCTATAGCATCAGATATACAAAATAGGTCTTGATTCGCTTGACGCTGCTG` gave a fluorescence intensity of 477 a.u.
The fluorescence intensity of `CTACGAAGTTTTTATCATGTGTTAGCGTGATGGTTCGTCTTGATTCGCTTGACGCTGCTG` is reported as 981 a.u.
For `GAAATATAACAAGCGTACGTGATCCCTTTCATTTAGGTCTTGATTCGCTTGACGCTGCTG`, the fluorescence intensity was 615 a.u.
`CTAAAAGAAGTATATCACGCTACAAAAATTCATTTCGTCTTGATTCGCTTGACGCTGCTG` has a fluorescence intensity of 804 a.u.
`GAATACGTGGTAATGAACGTGTATACATATATTTAGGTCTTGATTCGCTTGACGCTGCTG` has a fluorescence intensity of 573 a.u.
The fluorescence intensity of `CTAATCCTATTTTAAAACGTGAATATTCCAAGATTCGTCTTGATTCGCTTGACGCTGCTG` is reported as 616 a.u.
The fluorescence intensity of `CTAATACCAGGATCTGACGTCATGGCCCAATACTTCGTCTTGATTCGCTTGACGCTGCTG` is reported as 502 a.u.
`CTATACCACATGCTTCACATGTACAGAAAGTGGTTCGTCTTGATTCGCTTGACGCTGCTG` gave a fluorescence intensity of 1310 a.u.
The fluorescence intensity of `GAAAATAACGCACATGGTGGTGTACGGGTGTGTTAGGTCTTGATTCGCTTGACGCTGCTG` is reported as 1230 a.u.
`CCTAACTACTATAGGAAGGTGACATAGCTTCGTACAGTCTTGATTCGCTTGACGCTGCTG` gave a fluorescence intensity of 532 a.u.
With `CCTAACTACTATAATAACATCACATAGCTTCGTACAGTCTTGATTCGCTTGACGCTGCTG` the fluorescence intensity was 518 a.u.

For quick reference, copied from above (block 4):
With `CTAGTACAAATAAGTCACATGATGATATTTGATTTCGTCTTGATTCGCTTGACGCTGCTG` the fluorescence intensity was 6650 a.u.
For `CTAATGGCTTTGCATCTGATGCTGGCTCTACCGTTCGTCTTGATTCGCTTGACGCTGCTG`, the fluorescence intensity was 497 a.u.
With `CTAATCTTTATTGATAACGTGGACGTGTTATTATTCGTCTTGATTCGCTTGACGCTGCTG` the fluorescence intensity was 919 a.u.
With `CTAAGCGGGTCACGTGGTCGCGCAAATGATGATTTCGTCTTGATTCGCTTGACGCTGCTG` the fluorescence intensity was 29100 a.u.
`GAAACTATGCGTTCCTTCGTGATCAGGATCCCTTAGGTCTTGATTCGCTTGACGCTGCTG` gave a fluorescence intensity of 612 a.u.
With `GAATTCACAATATTCCGCGTGAATCGTAGAATTTAGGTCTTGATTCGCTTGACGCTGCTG` the fluorescence intensity was 525 a.u.
For `GAATTTGTTTTTAATCATGATGGACATGCAAGTTAGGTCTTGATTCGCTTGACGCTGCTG`, the fluorescence intensity was 593 a.u.
For `CTACGTGTCACTGTGCACGAGCAACGAAAAACTTTCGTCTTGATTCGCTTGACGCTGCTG`, the fluorescence intensity was 950 a.u.
`GAACAACTCGTACGTGATGGGGATTCTAAACCTTAGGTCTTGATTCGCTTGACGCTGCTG` gave a fluorescence intensity of 549 a.u.
`GAAAAATAGTGCTGGTTCGTGACGTGTAAATTCTAGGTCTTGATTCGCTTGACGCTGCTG` has a fluorescence intensity of 843 a.u.
